Measured values pooled from the literature.
Lines come from different studies, so protocols differ. “And” joins repeats or separate records; there may be more than shown.
PPARG: Peroxisome proliferator-activated receptor gamma (PPARG, Homo sapiens, UniProt P37231)
Rhomboid protease AarA: Rhomboid protease AarA (Providencia stuartii, UniProt P46116)
Chain of UniProt P46116 (whole entry, looked up): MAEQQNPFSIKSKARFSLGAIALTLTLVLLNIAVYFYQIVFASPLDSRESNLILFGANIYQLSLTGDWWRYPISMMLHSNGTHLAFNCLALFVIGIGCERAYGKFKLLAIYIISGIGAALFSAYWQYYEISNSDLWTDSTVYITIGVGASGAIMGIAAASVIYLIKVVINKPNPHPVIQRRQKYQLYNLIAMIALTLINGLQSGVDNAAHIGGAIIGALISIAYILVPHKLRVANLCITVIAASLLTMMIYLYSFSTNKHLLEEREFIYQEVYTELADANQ
PPARG ligand-binding domain: Peroxisome proliferator-activated receptor gamma, ligand-binding domain (PPARG, Homo sapiens, UniProt P37231)
Chain of UniProt P21741 (whole entry, looked up): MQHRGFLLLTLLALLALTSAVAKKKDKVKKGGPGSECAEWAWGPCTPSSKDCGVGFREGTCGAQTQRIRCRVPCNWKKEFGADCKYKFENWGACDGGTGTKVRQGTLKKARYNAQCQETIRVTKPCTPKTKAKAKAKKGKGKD
Chain of UniProt P03952 (whole entry, looked up): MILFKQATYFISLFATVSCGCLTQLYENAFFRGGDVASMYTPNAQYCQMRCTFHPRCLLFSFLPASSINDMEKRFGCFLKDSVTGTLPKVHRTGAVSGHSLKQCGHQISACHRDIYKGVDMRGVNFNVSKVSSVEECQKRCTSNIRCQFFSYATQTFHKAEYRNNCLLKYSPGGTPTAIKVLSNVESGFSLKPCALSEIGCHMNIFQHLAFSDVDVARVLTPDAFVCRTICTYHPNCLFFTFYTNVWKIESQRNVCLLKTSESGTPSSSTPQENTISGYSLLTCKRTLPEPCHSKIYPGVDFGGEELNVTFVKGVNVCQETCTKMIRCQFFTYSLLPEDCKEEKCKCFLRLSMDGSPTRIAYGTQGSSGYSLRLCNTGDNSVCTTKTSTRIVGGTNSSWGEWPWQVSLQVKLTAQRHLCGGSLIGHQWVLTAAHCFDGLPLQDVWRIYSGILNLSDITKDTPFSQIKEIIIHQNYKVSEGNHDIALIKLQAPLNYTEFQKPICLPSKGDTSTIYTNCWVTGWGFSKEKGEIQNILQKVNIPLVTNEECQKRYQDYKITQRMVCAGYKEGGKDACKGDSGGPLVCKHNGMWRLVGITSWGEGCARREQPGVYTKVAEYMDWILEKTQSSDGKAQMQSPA
Chain of UniProt Q15303 (whole entry, looked up): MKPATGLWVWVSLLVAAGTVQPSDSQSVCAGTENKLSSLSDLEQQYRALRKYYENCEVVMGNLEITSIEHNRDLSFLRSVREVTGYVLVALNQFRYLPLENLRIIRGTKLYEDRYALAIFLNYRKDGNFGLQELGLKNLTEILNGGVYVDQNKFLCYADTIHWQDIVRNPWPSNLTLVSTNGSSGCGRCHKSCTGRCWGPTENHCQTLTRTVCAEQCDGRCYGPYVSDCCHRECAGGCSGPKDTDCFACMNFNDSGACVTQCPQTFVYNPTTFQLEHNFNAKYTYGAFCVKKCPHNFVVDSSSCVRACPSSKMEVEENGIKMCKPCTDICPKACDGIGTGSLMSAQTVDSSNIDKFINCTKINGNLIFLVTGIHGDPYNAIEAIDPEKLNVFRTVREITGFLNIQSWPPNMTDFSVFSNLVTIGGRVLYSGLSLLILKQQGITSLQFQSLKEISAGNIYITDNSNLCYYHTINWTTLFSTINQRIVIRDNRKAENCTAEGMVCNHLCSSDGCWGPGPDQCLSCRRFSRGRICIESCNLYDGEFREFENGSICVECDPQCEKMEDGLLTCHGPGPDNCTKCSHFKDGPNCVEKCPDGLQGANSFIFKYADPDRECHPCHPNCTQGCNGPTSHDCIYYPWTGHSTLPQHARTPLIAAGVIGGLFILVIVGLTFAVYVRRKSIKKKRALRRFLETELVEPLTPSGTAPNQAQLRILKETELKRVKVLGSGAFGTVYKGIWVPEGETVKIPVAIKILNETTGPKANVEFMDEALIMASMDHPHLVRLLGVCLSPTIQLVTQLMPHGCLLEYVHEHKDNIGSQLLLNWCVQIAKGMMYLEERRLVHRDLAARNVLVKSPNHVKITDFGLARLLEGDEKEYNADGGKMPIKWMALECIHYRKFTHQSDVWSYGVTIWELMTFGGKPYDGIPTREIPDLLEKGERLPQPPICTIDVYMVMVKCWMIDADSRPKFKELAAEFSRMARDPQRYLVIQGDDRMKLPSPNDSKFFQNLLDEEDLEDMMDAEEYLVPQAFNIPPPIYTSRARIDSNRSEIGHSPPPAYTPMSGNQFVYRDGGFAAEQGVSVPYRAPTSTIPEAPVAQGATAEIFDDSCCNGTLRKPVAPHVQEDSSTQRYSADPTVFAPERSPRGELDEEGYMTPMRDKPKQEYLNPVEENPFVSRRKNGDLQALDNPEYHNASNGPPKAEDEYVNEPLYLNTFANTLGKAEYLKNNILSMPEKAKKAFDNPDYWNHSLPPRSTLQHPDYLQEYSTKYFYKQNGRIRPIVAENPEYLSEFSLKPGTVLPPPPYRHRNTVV
Chain of UniProt Q9NQR1 (whole entry, looked up): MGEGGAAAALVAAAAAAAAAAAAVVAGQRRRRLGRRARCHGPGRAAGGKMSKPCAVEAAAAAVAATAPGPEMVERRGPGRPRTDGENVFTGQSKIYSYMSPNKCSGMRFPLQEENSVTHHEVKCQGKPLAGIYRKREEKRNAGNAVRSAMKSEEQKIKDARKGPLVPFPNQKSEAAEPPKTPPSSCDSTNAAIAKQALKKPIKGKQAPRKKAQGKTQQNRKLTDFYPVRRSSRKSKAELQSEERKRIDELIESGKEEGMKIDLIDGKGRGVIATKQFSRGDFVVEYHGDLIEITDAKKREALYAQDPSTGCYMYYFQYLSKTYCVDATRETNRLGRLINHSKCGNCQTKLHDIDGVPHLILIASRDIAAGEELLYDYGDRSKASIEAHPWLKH
Chain of UniProt P35346 (whole entry, unmodified, looked up): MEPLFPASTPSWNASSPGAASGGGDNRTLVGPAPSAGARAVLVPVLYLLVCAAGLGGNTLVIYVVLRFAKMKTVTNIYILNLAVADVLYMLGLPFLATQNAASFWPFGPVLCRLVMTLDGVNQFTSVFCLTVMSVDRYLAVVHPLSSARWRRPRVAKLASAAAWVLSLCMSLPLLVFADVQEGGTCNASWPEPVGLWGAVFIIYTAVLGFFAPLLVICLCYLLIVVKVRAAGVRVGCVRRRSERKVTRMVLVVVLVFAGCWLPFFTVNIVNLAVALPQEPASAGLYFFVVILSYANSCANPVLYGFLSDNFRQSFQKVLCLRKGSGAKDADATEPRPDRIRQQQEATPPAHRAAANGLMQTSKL
Chain of UniProt Q13547 (whole entry, looked up): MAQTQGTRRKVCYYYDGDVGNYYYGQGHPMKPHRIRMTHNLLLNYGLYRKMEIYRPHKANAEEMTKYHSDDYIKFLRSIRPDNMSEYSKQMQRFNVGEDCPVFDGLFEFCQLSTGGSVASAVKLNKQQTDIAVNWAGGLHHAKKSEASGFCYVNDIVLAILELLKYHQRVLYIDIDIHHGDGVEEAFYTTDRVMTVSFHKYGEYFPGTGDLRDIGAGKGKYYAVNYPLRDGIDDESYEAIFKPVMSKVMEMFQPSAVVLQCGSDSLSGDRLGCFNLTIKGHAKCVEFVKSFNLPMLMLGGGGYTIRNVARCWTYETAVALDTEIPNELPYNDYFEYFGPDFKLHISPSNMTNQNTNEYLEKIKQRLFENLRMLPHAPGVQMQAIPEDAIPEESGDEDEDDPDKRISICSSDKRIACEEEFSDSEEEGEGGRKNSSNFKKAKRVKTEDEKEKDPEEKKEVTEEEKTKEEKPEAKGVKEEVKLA
Chain of UniProt P43358 (whole entry, looked up): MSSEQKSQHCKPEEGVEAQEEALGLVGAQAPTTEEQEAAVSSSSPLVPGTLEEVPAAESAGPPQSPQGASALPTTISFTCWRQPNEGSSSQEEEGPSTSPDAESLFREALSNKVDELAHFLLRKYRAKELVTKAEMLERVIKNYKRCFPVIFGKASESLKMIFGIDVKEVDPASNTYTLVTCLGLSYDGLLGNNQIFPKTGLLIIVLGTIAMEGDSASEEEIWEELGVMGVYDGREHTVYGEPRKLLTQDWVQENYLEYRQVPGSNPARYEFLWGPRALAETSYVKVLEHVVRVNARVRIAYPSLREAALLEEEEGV

For C=CC(=O)Nc1cccc(Cn2ncc3cnc(Nc4cnn(CCOC)c4)nc32)c1, “percent of control” read 100% (EPHA8 human; binding, KINOMEscan; 100 nM; lower = stronger binding).
With O=C(Nc1ccc(F)cc1)NC1CCN(c2ncnc3nc[nH]c23)C1 (stereo not shown) the IC50 was > 6000 nM (Plasmodium falciparum; parasite growth, parasite lactate dehydrogenase; NF54).
CCN(CC)CC#CCNc1ccnc2cc(Cl)ccc12 has a mean revertants of 6 revertants/well (Salmonella typhimurium; mini-Ames test; TA98; 62.5 µg/well, without S9).
The IC50 of Cc1c(Cc2cccc(OC(C)(C)C(=O)O)c2)c2ccc(C(=O)N[C@@H](C)c3cccc(C#N)c3)cc2n1C is reported as 18 nM (PPARG; ligand displacement, TR-FRET).
With CCOc1cc(CN2CCC3(CC2)CN(c2ccc(C(=O)O)cc2)C(=O)N3)c(C2CC2)cc1C the IC50 was 14.1 nM (Somatostatin receptor type 5 (SSTR5, Homo sapiens, UniProt P35346, Q123A); cAMP level, antagonist, GloSensor; AD293; Q123A mutant, bandwidth 3.36, together with: CST17 EC80 and forskolin).
Cc1c(Cc2cccc(OC(C)C(=O)O)c2)c2ccc(C(=O)NC(C)c3cccc(C4CC4)c3)cc2n1C (mixture of isomers) gave an IC50 of 3 nM (PPARG; ligand displacement, TR-FRET).
With O=C1C(Cl)=C(NCCN2CCOCC2)C(=O)c2ncccc21 the IC50 was 370 nM (N-lysine methyltransferase KMT5A (KMT5A, Homo sapiens, UniProt Q9NQR1); enzyme activity, inhibitor, radiometric).
With CC(C)(C)c1ccc(NC(=O)C(C(F)(F)F)C(F)(F)F)cc1 the IC50 was 6500 nM (Rhomboid protease AarA; enzyme activity, inhibitor, fluorescence).
Cc1c(Cc2ccc(OC(C)(C)C(=O)O)cc2)c2ccc(C(=O)N[C@@H](C)c3ccc(C(F)(F)F)cc3)cc2n1C has an IC50 of 2400 nM (PPARG ligand-binding domain; reporter gene, luciferase reporter; HEK293T, Gal4-PPARγ LBD).
The AUC(0-t) of C=C(NC(=O)c1csc(-c2nc3c(cc2O)-c2nc(cs2)C(=O)NC(C(C)O)C(=O)NC(=C(C)OC)c2nc(cs2)C(=O)NC2c4nc(cs4)C(=O)NC(COC(=O)c4c5c6c(cccc6n4O)COC(=O)C(OC4CC(C)(O)C(N(C)C)C(C)O4)C2OC5)c2nc-3cs2)n1)C(N)=O (stereo not shown) is reported as 20800 ng·h/mL (male cynomolgus monkey, plasma; intravenous, 3 mg/kg, single dose, infusion).
For COC1CN([C@H]2CC[C@H]([C@@]3(C)Oc4c(Cl)cc(C(=O)NCc5c(SC)cc(C)[nH]c5=O)c(C)c4O3)CC2)C1, “log2 fold change” read 1.47 (RNA-seq, item: SGIP1 mouse homolog; mouse, HT-1376 xenograft, whole blood; dose not given; relative to: vehicle).
With COc1ccc(O[C@@H]2O[C@H](COS(=O)(=O)O)[C@H](OS(=O)(=O)O)[C@H](O[C@@H]3O[C@H](C(=O)O)[C@@H](O[C@@H]4O[C@H](COS(=O)(=O)O)[C@H](OS(=O)(=O)O)[C@H](O[C@@H]5O[C@H](C(=O)O)[C@@H](OS(=O)(=O)O)[C@H](O)[C@H]5O)[C@H]4NC(C)=O)[C@H](O)[C@H]3O)[C@H]2NC(C)=O)cc1 the IC50 was 149000 nM and 122000 nM (Midkine (Homo sapiens, UniProt P21741); heparin hexasaccharide binding, fluorescence polarisation competition; together with: fluorescein-labelled hexasaccharide probe).
CC[C@H](C)[C@@H]1NC(=O)[C@H](Cc2ccc(O)cc2)NC(=O)CCSCc2cccc(c2)CSCCNC(=O)[C@H](Cc2c[nH]cn2)NC(=O)[C@H](Cc2ccc(O)cc2)NC(=O)[C@H](CC(=O)O)NC(=O)[C@H](Cc2ccc(O)cc2)NC(=O)[C@H](CC(C)C)NC(=O)[C@H](CCCNC(=N)N)NC1=O gave an IC50 of 34400 nM (Melanoma-associated antigen 4, MHD; with RAD18 (Homo sapiens, UniProt P43358); protein-protein interaction, NanoBRET; HEK293; 1.5 h).
CC1(F)CN(C(=O)Cn2c(=O)c(C(=O)NCc3ccc(Cl)cc3)cc3nc(N4CCN(CCN)C4=O)cnc32)C1 has an IC50 of > 40000 nM (Voltage-gated inwardly rectifying potassium channel KCNH2 (KCNH2, Homo sapiens, UniProt Q12809); ion current, automated patch clamp; CHO expressing hERG).
CC(C)C[C@H](NC(=O)[C@H](Cc1ccc(O)cc1)NC(=O)[C@@H](CCCNC(=N)N)NC(=O)[C@@H](CO)NC(=O)[C@H](Cc1ccccc1)NC(=O)[C@H](CC1CCCCC1)NC(=O)[C@H](CC(=O)O)NC(=O)CN1CCN(CC(=O)O)CCN(CC(=O)O)CCN(CC(=O)O)CC1)C(=O)N[C@@H](Cc1c[nH]c2ccccc12)C(=O)N[C@@H](CO)C(=O)O [copper-64 labelled] gave an activity concentration of 7240 Bq/mL and 4040 Bq/mL and 7370 Bq/mL and 4950 Bq/mL and 9690 Bq/mL and 4280 Bq/mL (human, pancreas; concentration not given, 3 h).
The IC50 of Cc1nn(-c2cccc(N)c2)c(=O)c2cnc(Nc3ccc(N4CCNCC4)cc3)nc12 is reported as > 10000 nM (Receptor tyrosine-protein kinase erbB-4 (ERBB4, Homo sapiens, UniProt Q15303); enzyme activity, inhibitor).
Cc1c(Cc2cccc(OC(C(=O)O)C(C)C)c2)c2ccc(C(=O)NC(C)c3cccc(C(C)(C)C)c3)cc2n1C (mixture of isomers) gave an IC50 of 381 nM (PPARG; ligand displacement, TR-FRET).
CN1CCCNC(=O)c2cccc(c2)C(=O)NCCCN(C)CCCNc2cccc3c2C(=O)c2cccc(c2C3=O)NCCC1: “log2 fold change” -0.803 (SAS; RNA-Seq, item: DHX36 mRNA; 1 µM, 6 h; relative to: untreated cells).
O=C1CC(c2ccccc2)N1S(=O)(=O)c1cccc(-c2ccccc2)c1 (stereo not shown) has an IC50 of 40000 nM (Rhomboid protease AarA; enzyme activity, inhibitor, fluorogenic peptide; 15 min pre-incubation).
With Cc1c(Cc2cccc(OC(C)(C)C(=O)O)c2)c2ccc(C(=O)N[C@@H](C)c3cccc(Br)c3)cc2n1C the IC50 was 4520 nM (PPARG ligand-binding domain; reporter gene, luciferase reporter; HEK293T, Gal4-PPARγ LBD).
OB(O)c1sccc1/C=N/OCc1ccccc1 has an IC50 of > 100000 nM (Plasma kallikrein (KLKB1, Homo sapiens, UniProt P03952); enzyme activity, inhibitor).
The remaining binding of Nc1ncc(-c2cc(-c3cnn(CC(F)(F)F)c3)ncc2F)nc1C(=O)NC1CNCC(F)C1 (stereo not shown) is reported as 86% (CSNK1D; KINOMEscan; 1 µM; relative to: DMSO control).
COc1ccc(Cl)cc1NC(=O)C(C(F)(F)F)C(F)(F)F has an IC50 of 3400 nM (Rhomboid protease AarA; enzyme activity, inhibitor, fluorescence).
Cc1nnc(-c2ccc(CC(=O)NC(CCN3C4CCC3CC(n3c(C)nnc3C(C)C)C4)c3ccccc3)cc2)nn1 (stereo not shown) gave an IC50 of 1.54 nM and 2 nM and 1.58 nM (C-C chemokine receptor type 5 (CCR5, Homo sapiens, UniProt P51681, Y184K); calcium mobilisation, inhibitor; HEK293T expressing CCR5; together with: PSC-RANTES).
The IC50 of Cc1nc2c(F)cc(-c3nc(Nc4ccc(C(=O)NCCCC(=O)NO)cc4)ncc3F)cc2n1C(C)C is reported as 100 nM (Histone deacetylase 1 (HDAC1, Homo sapiens, UniProt Q13547); enzyme activity, inhibitor).

A few entries again:
Cc1c(Cc2cccc(OC(C(=O)O)C(C)C)c2)c2ccc(C(=O)NC(C)c3cccc(C(C)(C)C)c3)cc2n1C (mixture of isomers) gave an IC50 of 381 nM (PPARG; ligand displacement, TR-FRET).
CN1CCCNC(=O)c2cccc(c2)C(=O)NCCCN(C)CCCNc2cccc3c2C(=O)c2cccc(c2C3=O)NCCC1: “log2 fold change” -0.803 (SAS; RNA-Seq, item: DHX36 mRNA; 1 µM, 6 h; relative to: untreated cells).
O=C1CC(c2ccccc2)N1S(=O)(=O)c1cccc(-c2ccccc2)c1 (stereo not shown) has an IC50 of 40000 nM (Rhomboid protease AarA; enzyme activity, inhibitor, fluorogenic peptide; 15 min pre-incubation).
With Cc1c(Cc2cccc(OC(C)(C)C(=O)O)c2)c2ccc(C(=O)N[C@@H](C)c3cccc(Br)c3)cc2n1C the IC50 was 4520 nM (PPARG ligand-binding domain; reporter gene, luciferase reporter; HEK293T, Gal4-PPARγ LBD).
